Results pooled from the literature.
Parts stem from different laboratories: compare values within a part only. Values joined by “and” are separate records of one study, mostly repeats; a detail may differ.

Set 1
Target: Replicase polyprotein 1ab, polymerase (rep, Severe acute respiratory syndrome coronavirus 2, UniProt P0DTD1)
Observed: enzyme activity
Action: inhibitor
Concentration: 20 µM
SMILES	inhibition
CCS(=O)(=O)Nc1ccc2c(c1)/C(=C(/Nc1ccc(CN3CCCCC3)cc1)c1ccccc1)C(=O)N2	6.77%
CS(=O)(=O)c1ccc(C2=C(c3ccccc3)C(=O)OC2)cc1	-1.53%
CC(=O)O[C@]1(C(C)=O)CC[C@H]2[C@@H]3C[C@H](C)C4=CC(=O)CC[C@]4(C)[C@H]3CC[C@@]21C	18.2%
Cl[C@H]1[C@H](Cl)[C@@H](Cl)[C@@H](Cl)[C@H](Cl)[C@H]1Cl	-0.01%
Cc1cc(C)cc(C(=O)N(C)[C@H](Cc2ccc(-c3ccccc3)cc2)C(=O)N[C@@H](Cc2c[nH]c3ccccc23)C(=O)O)c1	3.57%
Oc1ccc2ccccc2c1SSc1c(O)ccc2ccccc12	3.12%
O=C(c1c(F)ccc(NS(=O)(=O)N2CC[C@@H](F)C2)c1F)c1c[nH]c2ncc(-c3cnc(C4CC4)nc3)cc12	4.99%
Clc1ccc(C(Cn2ccnc2)OCc2c(Cl)cccc2Cl)c(Cl)c1 (stereo not shown)	-21.5%
Cc1ccc(C(=O)Cn2c3c(sc2=N)CCCC3)cc1	0.53%
CN1CCC(OC(c2ccccc2)c2ccccc2)CC1	11.3%
O=C1CN(/N=C/c2ccc(-c3ccc([N+](=O)[O-])cc3)o2)C(=O)N1	10.5%
COc1cc(N)c(Cl)cc1C(=O)NC1CCN(Cc2ccccc2)CC1	0.08%
C[C@@H]([C@@H](O)c1ccc(O)cc1)N1CCC(O)(c2ccccc2)CC1	2.56%
Cc1c(N)nc([C@H](CC(N)=O)NC[C@H](N)C(N)=O)nc1C(=O)N[C@H](C(=O)N[C@H](C)[C@@H](O)[C@H](C)C(=O)N[C@H](C(=O)NCCc1nc(-c2nc(C(=O)NCCCNCCCCN)cs2)cs1)[C@@H](C)O)[C@@H](O[C@@H]1O[C@@H](CO)[C@@H](O)[C@H](O)[C@@H]1O[C@@H]1O[C@H](CO)[C@@H](O)[C@H](OC(N)=O)[C@@H]1O)c1cnc[nH]1	-8.66%
C[C@H]1[C@H](OC(=O)CCC(=O)O)O[C@@H]2O[C@@]3(C)CC[C@H]4[C@H](C)CC[C@@H]1[C@@]24OO3	-2.71%
Cc1cc2c(C(C)C)c(O)c(O)c(C=O)c2c(O)c1-c1c(C)cc2c(C(C)C)c(O)c(O)c(C=O)c2c1O	61.3%
Nc1nc2[nH]cnc2c(=S)[nH]1	-3.13%
O=C(O)/C=C/c1ccc(-c2ccc(O)c(C34CC5CC(CC(C5)C3)C4)c2)cc1	-0.86%
CCc1ccc2c(-c3cccc(Cl)c3)nc(=O)n(CC)c2n1	-2.47%
Nc1ncnc2c1c(-c1ccc(Cl)cc1)nn2-c1cccc(-c2cnnn2Cc2cccc(-c3ccccc3)c2)c1	26.7%
CC(=O)c1ccc2c(c1)N(CCCN1CCN(CCO)CC1)c1ccccc1S2	-3.36%
COc1cc2ncnc(Nc3cccc(Cl)c3)c2cc1OC	-1.52%
CCOC(=O)c1c(/C(C#N)=C\N)c2ccc(Cl)c(Cl)c2n1C	-0.65%
CCN1CCN(C(=O)Cc2ccc(Nc3ncc(F)c(Nc4ccc(C(=O)Nc5ccccc5Cl)cc4)n3)cc2)CC1	-5.32%
COc1cc(OC)cc(C(=O)NNC(=O)Nc2cccc3ccccc23)c1	-2.39%

Set 2
Target: Replicase polyprotein 1ab, main protease (rep, Severe acute respiratory syndrome coronavirus 2, UniProt P0DTD1)
Observed: enzyme activity
Action: inhibitor
Concentration: 20 µM
Notes: hit confirmation, with DTT
Compound	inhibition
O=C1OC2(c3ccccc31)c1cc(Br)c(O)c(Br)c1Oc1c2cc(Br)c(O)c1Br	21.3%
N[C@@H](C(=O)N[C@@H]1C(=O)N2C(C(=O)O)=C(Cl)CS[C@H]12)c1ccccc1	-4.2%
Nc1nc(=S)c2ncn([C@@H]3O[C@H](CO)[C@@H](O)[C@H]3O)c2[nH]1	99.3% and 12%

Set 3
Target: RING finger protein unkempt homolog, zinc fingers 1-6, GST-SBP tag (UNK, Homo sapiens, UniProt Q9C0B0, residues 30-357)
Sequence of UniProt Q9C0B0 (30-357, looked up): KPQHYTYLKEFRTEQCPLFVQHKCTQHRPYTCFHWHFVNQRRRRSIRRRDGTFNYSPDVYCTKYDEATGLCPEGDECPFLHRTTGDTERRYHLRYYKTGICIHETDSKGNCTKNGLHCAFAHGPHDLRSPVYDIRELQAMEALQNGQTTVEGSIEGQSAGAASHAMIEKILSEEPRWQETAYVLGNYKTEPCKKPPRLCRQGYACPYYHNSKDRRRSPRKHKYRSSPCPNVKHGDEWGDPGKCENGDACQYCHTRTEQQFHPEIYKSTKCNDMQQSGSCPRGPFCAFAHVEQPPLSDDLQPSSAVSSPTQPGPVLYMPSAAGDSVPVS
Technique: RNA Bind-n-Seq
Form: RNA
Medium: in vitro
Concentration: not given
Notes: RNA with constant flanks, human and mouse sites, ends assumed
Relative to: input RNA pool
Reading: higher = stronger binding
All sequences stand within: GGGAGUUCUACAGUCCGACGAUC … CAACAGAGGAUUGAGCAUCA
Strand	bound/input enrichment
UUUGCAGUUUAUGAUGGUCAUGCUGGAUCCCGAGUGGCAAAUUACUGCUCAACACAUUUAUUAGAACACAUCACUACUAACGAAGACUUUAGGGCAGCUGGAAAAUCAGGAUCUGCUCUU	0.864 ratio
GGAUCCAUUGCCUUGAAGAAAGUGAAAUUCCAAGCUAAGCUAGAACAUGAAUAUAUCCAGAACUUCAAAAUACUACAAGCAGGCUUCAAGAGGAUGGGCGUUGACAAAAUAAUUCCUGUG	0.448 ratio
AACAUUCAUUUCAUGAAAGCCUUCCAGAAAAUAGUGGUGCUUUUUUAUAAAGCUGAAGUCCUGAGCGAGGAGCCCAUUUUGAAGUGGUAUAAAGAUGCACAUGUUGCAAAGGGGAAGAGU	0.382 ratio
CUGAAAGCUGCCAUUUCAGAACGUGAAGAGGUUAGAGGGAGAAGUGAACUGUUUCAUCCUGUUAGUGUAGACUGUAAGCUAAGGCAAAAAGCAACCACAAGAGCUGACACCGAUGUAGAC	1.17 ratio
CAGGUUAGAGUUACUUGUUAUUGGUAAAUAGCCACUAUGGAGGCUAAGGACCAGAAGAAACACAGAAAGAAAAACAGUGGACCCAAAGCUGCAAAGAAAAAGAAGCGGCUUCUGCAGGAU	0.18 ratio
CCUUCCUUUCUGGCCAGUUCACCAAAAGGCAAAGGCUAUAAUAGGAGGUUAGCGCUUAGCUGGCUUUGGAAGUAAGUCUUUAUUAGUUUUCUGAGGGAGAUCAGAGAUGCACAGCUGGAC	0.595 ratio
GCUGCAUCUGACAGAGCAAGUAGACGAGAGGCUGGGUGGUGGGCUCCGGCCAGCCCGAGUCUUAGAGCUGGUGGUUGGUUAUAUCUGGUGCCUGUCUCGAGGAGGGCUUGAGACACAGUG	0.574 ratio
AUUGGCAACAAUAUCAAAAAAGAAACAGUGUUCUCUGAUGAUGAUUUCAAUAUUGAGCCGCUUAUUUCUGCAUUCCACAAAGUUGAGAAAUUUGCUAAGGAACUGCAAGGCAAAACAGAC	0.12 ratio

Set 4
Target: Interferon regulatory factor 5, full length, phosphomimetic (IRF5, Homo sapiens, UniProt Q13568-2, residues 1-514, S451D/S453D/S456D/S462D)
Technique: protein-binding microarray
Form: double-stranded DNA, one strand shown
Medium: in vitro
Concentration: 940 nM top
Notes: 60-bp whole probe
Together with: salmon DNA 0.4 mg/ml
Relative to: random background probes
Reading: higher = stronger binding
All sequences stand within: GCCTAGCAC … GTCTTGATTCGCTTGACGCTGCTG
Strand	fitted relative affinity [z-score]
TAAGGTTTCCTTTCCCTTTAGTGCTAG	1.9
TTAGTTCTCCTTCTCCTTTAGTGCTAG	1.5
CTCTGGTTCTTGCTTGGTGTCGTGCTA	-0.144
GACGATTTCAGACCGGAGACGTGCTAG	-0.297
GTATTTTTCTAAACCATTTTGTGCTAG	0.921
TTAGGTATCGGGTATCGGTTAGTGCTA	7.07
GACGGTCTCGGTCTCGGAACGTGCTAG	4.3
TTAGATATCGGGACTGGATTTGTGCTA	0.27

Set 5
Organism: Vesicular stomatitis virus
Observed: pseudovirus infection
Technique: FDA-approved drug library screen
Concentration: concentration not given
Notes: SARS-CoV-2 spike pseudotype
Relative to: vehicle
Compound	GFP-positive cells
CC[C@@H]1C(=O)OC[C@@H]1Cc1cncn1C.Cl	93.1%
C[C@]12C=CC(=O)C=C1CC[C@@H]1[C@@H]2[C@@H](O)C[C@@]2(C)[C@H]1CC[C@]2(O)C(=O)COP(=O)([O-])[O-].[Na+].[Na+]	77.8%
CN(C)[C@@H]1C(=O)C(C(N)=O)=C(O)[C@@]2(O)C(=O)C3=C(O)c4c(O)cccc4[C@@](C)(O)[C@H]3[C@H](O)[C@@H]12	82.8%

Set 6
Target: RNA binding protein fox-1 homolog 2, RRM domain, GST-SBP tag (RBFOX2, Homo sapiens, UniProt O43251-10, residues 100-194)
Technique: RNA Bind-n-Seq
Form: RNA
Medium: in vitro
Concentration: 365 nM
Notes: natural RNA segment, single round, ends assumed
Relative to: no-protein control
Reading: higher = stronger binding
All sequences stand within: GGGAGUUCUACAGUCCGACGAUC … UGGAAUUCUCGGGUGCCAA
Target sequence (chain): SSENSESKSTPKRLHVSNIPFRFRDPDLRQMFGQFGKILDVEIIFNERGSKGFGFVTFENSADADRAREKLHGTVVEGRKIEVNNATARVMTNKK
Strand	RBNS enrichment (R)
ACCUCCGCAUCCACCCCCGUCCGCCAUCCUGCCCACCACCAGGUCGGUUCCCGAGGCCUGGCCUUUCCCUCUCCUGCUGAGAACCAGAACCCACCAGGAGCACCACAGAG	2.04
UGGACUGGCUAUAACCAUAAGCCAGGCGCUUUCACCAAGAUGGCUGGUGGCCAAGGUGGGCAGUAGGCAUGAGCUUCCAGCAGGAAAGGACAAGAGAGUAGGCAGGCUUA	1.76
AAUGGUAGCUACCUCAAACCUCAUUACGAAUUCAAUGAGUUAAACUUGAAAAGACUUAUUACAGUAGCUGGCACAUAAAGACUUGAUAGUAGUUUAUAUGGAUGCUAUCU	0.603
CUCUUCCCUGCAGUGUUUUCAUUUUAUUUUAGCCAAACAUUUUGCCUGUUUUCUGUUUCAAACAUGAUAGUUGAUAUGAGACUGAAACCCCUGGGUUGUGGAGGGAAAUU	0.636
AAUGCUGAUUCUGAUUCUGAGAUCAAUUUGUGGGAAUUUUACAUAAAUCUUUGUUAAUUACUGAGUGGGCAAGUAGACUUCCUGUCUUUGCUUUCUUUUUUUUUUUCUUU	1.06
GUAGUGAUUCUUGGAAAGAAUUUGAGGUCCCCAAAGGUGUAUUUUUGGGCAAAUGAAACCAUAAACUCCGACUGGCUUCUGUAGAUGCCAAAGGGCUCUUUUUCAGCUAA	0.294
AAAACUCAGAUGAGAUGCUCUGACUCCAUCGUGAAGUGGUCACUGAAAAAAAUGUUGCUGGUUUCUUGGGAUGAAAGAACUGAGCCAGCAUCUGAAAAAGAUCAUUUCAU	0.597
CAGAGCCAGACAAAGCUGUGAAUGGCCUAGGGGCUGAGUCCCACACCAGCUGUGAAUUCUCCUGCAGACAGGAGGGCCCUGGCUGUGCACCUGGGGAAGUGGUUGCCCUG	0.499

Some of these lines once more (set 4):
Strand	fitted relative affinity [z-score]
TTAGGTATCGGGTATCGGTTAGTGCTA	7.07
CTCTGGTTCTTGCTTGGTGTCGTGCTA	-0.144
TTAGTTCTCCTTCTCCTTTAGTGCTAG	1.5
TTAGATATCGGGACTGGATTTGTGCTA	0.27
GACGATTTCAGACCGGAGACGTGCTAG	-0.297
GTATTTTTCTAAACCATTTTGTGCTAG	0.921
TAAGGTTTCCTTTCCCTTTAGTGCTAG	1.9
